Measurements of several laboratories.
Numbers after ± are the reported error.
UCHL1: Ubiquitin carboxyl-terminal hydrolase isozyme L1 (UCHL1, Homo sapiens, UniProt P09936)
UniProt P09936, sequence (whole entry, looked up): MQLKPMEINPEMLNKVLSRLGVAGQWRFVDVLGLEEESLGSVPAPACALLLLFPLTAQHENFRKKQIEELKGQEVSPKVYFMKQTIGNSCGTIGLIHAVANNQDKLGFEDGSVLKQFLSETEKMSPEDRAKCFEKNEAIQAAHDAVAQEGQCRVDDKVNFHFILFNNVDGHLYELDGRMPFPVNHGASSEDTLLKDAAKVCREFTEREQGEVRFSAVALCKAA

CN1C=C/C(=C\c2cc[n+](C)c3ccccc23)c2ccccc21
inhibition (Trypanosoma cruzi; reporter translation, Renilla luciferase mRNA translation; cell-free extract; 40 µM; relative to: DMSO): 5.9%

CCCC(=O)OCSc1ccccc1C(=O)NCCn1cc(C(=O)NCc2ncccn2)c(=O)c2cc3c(cc21)OCO3
EC50 (HIV-1; virus-induced cytopathic effect, inhibitor, XTT; CEM-SS, RF; 6 days): 1850 ± 110 nM

Cc1ccc(N(c2ccc(NC(=O)CN(C)c3ccccc3N3CCCC3=O)cc2)C(C)C)cc1
EC50 (Plasmodium falciparum; schizont egress, nanoluciferase release; 3D7 NanoLuc; 4 h): > 10000 nM

Nc1ncnc2c1nnn2[C@@H]1C(F)=C(CO)[C@@H](O)[C@H]1O
EC50 (dengue virus type 2; viral replication, luciferase reporter; BHK-D2-Rluc; 48 h): 37400 nM

CCCC(=O)OCSc1ccccc1C(=O)NCCOc1ccnc2ccc([N+](=O)[O-])cc12
EC50 (HIV-1; virus-induced cytopathic effect, inhibitor, XTT; CEM-SS, RF; 6 days): > 14900 nM

CC(=O)[C@]1(O)Cc2c(O)c3c(c(O)c2[C@@H](O[C@H]2C[C@H](N)[C@H](O)[C@H](C)O2)C1)C(=O)c1ccccc1C3=O
EC50 (Toxoplasma gondii; parasite growth; HFF, bradyzoite, alkaline-induced): 1600 nM

CCCC(=O)OCSc1ccccc1C(=O)NCCn1cc(C(=O)NCc2ccccn2)c(=O)c2cc3c(cc21)OCO3
EC50 (HIV-1; viral replication; human PBMC, 92RW009): 600 ± 320 nM

Cc1cc(OC(C)C)ccc1C(=O)C(C)(C)NC(=O)c1sccc1C
EC50 (Plenodomus lingam; mycelial growth; PSA medium; 20 °C, suspension concentrate 400 g/L): 0.07 µg/mL

CCCC(=O)OCSc1ccccc1C(=O)NCCn1cc(C(=O)NCc2cccc(C)n2)c(=O)c2cc3c(cc21)OC(F)(F)O3
EC50 (HIV-1; virus-induced cytopathic effect, inhibitor, XTT; CEM-SS, RF; 6 days): 1380 ± 480 nM

CCCCCCNc1nc(NC2CCN(C)CC2)c2cc(OC)c(OC)cc2n1
EC50 (Toxoplasma gondii; parasite growth; HFF, bradyzoite, glutamine-induced): 2480 nM

CCCC(=O)OCSc1ccccc1C(=O)NCCn1cc(C(=O)NCc2cccc(C)n2)c(=O)c2cc3c(cc21)OCO3
EC50 (HIV-1; viral replication; human PBMC, 92RW009): 1280 ± 290 nM

O=C(NCc1cn(-c2ccccc2)nc1-c1ccccc1)c1cc([N+](=O)[O-])cc([N+](=O)[O-])c1
inhibition (Trypanosoma cruzi; reporter translation, Renilla luciferase mRNA translation; cell-free extract; 40 µM; relative to: DMSO): 14%

O=[N+]([O-])c1ccc2c(c1)S(=O)(=O)C=C2
EC50 (Toxoplasma gondii; parasite growth; HFF, bradyzoite, glutamine-induced): 1480 nM

Cn1cc(S(=O)(=O)N2CCOCC2)cc1C(=O)NC(=O)CCl
labelling (UCHL1; covalent, intact protein LC-MS; 12.5 µM): 17.7%

COCC(=O)N1CCCC(C(=O)NCc2nc(-c3ccccc3)cs2)C1 (racemic)
EC50 (Plasmodium falciparum; intermittent drug pressure cycling; Dd2_B2 bulk culture after selection; flask 3, pulse 1): 130 nM

O=c1[nH]cc(F)c(=O)[nH]1
EC50 (Toxoplasma gondii; parasite growth; HFF, bradyzoite, alkaline-induced): 3150 nM

Cc1ccc(Nc2cnnc3cc(-c4ccc(N5CCN(C)CC5)cc4)ccc23)cn1
EC50 (Leishmania donovani; B10R cells): 350 nM

Cn1cnc([N+](=O)[O-])c1Sc1ccccc1C(=O)NCCn1cc(C(=O)NCc2ccccn2)c(=O)c2cc3c(cc21)OCO3
EC50 (HIV-1; viral replication; human PBMC, 92RW009): 11200 ± 4650 nM

COc1ccc(Nc2cnnc3cc(-c4ccc(N5CCN(C)CC5)cc4)ccc23)nc1
EC50 (Leishmania donovani; B10R cells): 190 nM

CNc1ncnc2c1nnn2[C@@H]1C(F)=C(CO)[C@@H](O)[C@H]1O
EC50 (dengue virus type 2; viral replication, luciferase reporter; BHK-D2-Rluc; 48 h): > 100000 nM

O=C(c1ccc(Nc2nccc(-c3cc4ccccc4s3)n2)cc1)N1CCC(N2CCCC2)CC1
EC50 (Toxoplasma gondii; parasite growth, luciferase reporter; HFF, tachyzoite; 72 h): 2580 nM

Nc1nc(N)c2nnn([C@@H]3C(F)=C(CO)[C@@H](O)[C@H]3O)c2n1
EC50 (dengue virus type 2; viral replication, luciferase reporter; BHK-D2-Rluc; 48 h): > 100000 nM

COc1ccc(Nc2cnnc3ccc(-c4ccc(N5CCN(C)CC5)cc4)cc23)cc1Cl
EC50 (Leishmania donovani; B10R cells): 2300 nM

Cc1ccc(S(=O)(=O)/C=C/C#N)cc1
EC50 (Toxoplasma gondii; parasite growth; HFF, bradyzoite, glutamine-induced): 5960 nM

COc1ccc(Nc2cnnc3ccc(-c4cnc(N5CCN(C)CC5)nc4)cc23)cc1Cl
EC50 (Leishmania donovani; B10R cells): > 10000 nM

N#CC(=Cc1ccc(O)c([N+](=O)[O-])c1)C(=O)Nc1ccccc1C(=O)O
labelling (UCHL1; covalent, intact protein LC-MS; 12.5 µM): 24.1%

COc1ccc(Nc2cnnc3ccc(-c4cnc(N5CCCN(C)CC5)nc4)cc23)cc1Cl
EC50 (Leishmania donovani; B10R cells): > 10000 nM

Cc1cn([C@H]2C[C@H](N=[N+]=[N-])[C@@H](CO)O2)c(=O)[nH]c1=O
EC50 (HIV-1; viral cytopathic effect, XTT; CEM-SS, RF; with: glutathione 1 mM): 8 ± 1 nM

CN1CCN(c2ccc(-c3ccc4c(Nc5ncccn5)cnnc4c3)cc2)CC1
EC50 (Leishmania donovani; B10R cells): 2000 nM

COC(=O)C1=C(C)NC(C)=C(C(=O)OC(C)(C)CN(C)CCC(c2ccccc2)c2ccccc2)C1c1cccc([N+](=O)[O-])c1 (stereo not shown)
EC50 (Toxoplasma gondii; parasite growth, luciferase reporter; HFF, tachyzoite; 72 h): 9340 nM

CN1CCN(c2ccc(-c3ccc4c(Nc5cnccn5)cnnc4c3)cc2)CC1
EC50 (Leishmania donovani; B10R cells): 6600 nM

CCCC(=O)OCSc1ccccc1C(=O)NCCNC(=O)Cn1ccc(=O)c2cc3c(cc21)OCO3
EC50 (HIV-1; virus-induced cytopathic effect, inhibitor, XTT; CEM-SS, RF; 6 days): 18500 ± 4990 nM

CN1CCN(c2ncc(-c3ccc4nncc(Nc5cnccn5)c4c3)cn2)CC1
EC50 (Leishmania donovani; B10R cells): > 10000 nM

S=C(S)N1CCCC1
EC50 (Toxoplasma gondii; parasite growth, luciferase reporter; HFF, tachyzoite; 72 h): 4480 nM

A few entries again:
N#CC(=Cc1ccc(O)c([N+](=O)[O-])c1)C(=O)Nc1ccccc1C(=O)O
labelling (UCHL1; covalent, intact protein LC-MS; 12.5 µM): 24.1%

COc1ccc(Nc2cnnc3ccc(-c4cnc(N5CCCN(C)CC5)nc4)cc23)cc1Cl
EC50 (Leishmania donovani; B10R cells): > 10000 nM
